Experimental data of several laboratories.
Spike glycoprotein: Spike glycoprotein (Severe acute respiratory syndrome coronavirus 2, UniProt P0DTC2)
Spike glycoprotein RBD: Spike glycoprotein, RBD (Severe acute respiratory syndrome coronavirus 2, UniProt P0DTC2)

O=C(C=Cc1ccc(O)c(O)c1)OC1CC(O)(C(=O)O)CC(OC(=O)C=Cc2ccc(O)c(O)c2)C1O (stereo not shown) — Kd (Spike glycoprotein; binding, BLI): 1480 nM
CC(C)C[C@H](NC(=O)[C@H](Cc1c[nH]c2ccccc12)NC(=O)[C@H](CCCNC(=N)N)NC(=O)[C@H]1CCC[C@@H]1NC(=O)[C@H](CCC(=O)O)NC(=O)[C@H](CC(=O)O)NC(=O)[C@H](CC(=O)O)NC(=O)[C@@H](N)CCCNC(=N)N)C(=O)N[C@H]1CCC[C@@H]1C(=O)N[C@H](C(=O)N[C@@H](CC(=O)O)C(=O)N[C@H]1CCC[C@@H]1C(=O)N[C@H](C(=O)N[C@@H](Cc1ccc(O)cc1)C(=O)N[C@@H](CCCC(=O)O)C(=O)N[C@H]1CCC[C@@H]1C(=O)N[C@@H](Cc1c[nH]c2ccccc12)C(=O)N[C@@H](Cc1c[nH]cn1)C(N)=O)C(C)C)[C@@H](C)O — Kd (Spike glycoprotein RBD): 6500 nM
CC[C@H](C)[C@H](NC(=O)[C@H](CCCCN)NC(=O)[C@H](CCC(N)=O)NC(=O)[C@H](CC(C)C)NC(=O)[C@H](CO)NC(=O)[C@H](Cc1c[nH]c2ccccc12)NC(=O)[C@H](CCC(=O)O)NC(=O)[C@H](CCCCN)NC(=O)[C@H](CC(=O)O)NC(C)=O)C(=O)N[C@@H](Cc1ccc(O)cc1)C(=O)N[C@@H](CCC(=O)O)C(=O)N[C@@H](CCCC(=O)NCCN(CC(=O)NCCN(CC(=O)NCCN(CC(=O)NCCN(CC(=O)N[C@@H](CCCNC(=N)N)C(N)=O)C(=O)Cn1cnc2c(=O)[nH]c(N)nc21)C(=O)Cn1ccc(N)nc1=O)C(=O)Cn1ccc(N)nc1=O)C(=O)Cn1cnc2c(=O)[nH]c(N)nc21)C(=O)N[C@@H](CSSC)C(=O)N[C@@H](CCCNC(=N)N)C(=O)N[C@@H](CC(C)C)C(=O)N[C@@H](CC(C)C)C(=O)N[C@@H](CC(=O)O)C(=O)N[C@@H](CCC(=O)O)C(=O)N[C@@H](CC(C)C)C(=O)NCC(=O)N[C@@H](Cc1c[nH]cn1)C(=O)N[C@@H](C)C(=O)N[C@@H](CCC(=O)O)C(=O)N[C@@H](C)C(=O)N[C@@H](CO)C(=O)N[C@@H](CCSC)C(=O)N[C@@H](CCCNC(=N)N)C(=O)N[C@H](C(=O)N[C@@H](CO)C(=O)N[C@@H](CC(=O)O)C(=O)N[C@@H](CCCCNC(=O)CN(CCNC(=O)CN(CCNC(=O)CN(CCNC(=O)CN(CCNC(=O)[C@H](CCCNC(=N)N)NC(C)=O)C(=O)Cn1ccc(N)nc1=O)C(=O)Cn1cnc2c(=O)[nH]c(N)nc21)C(=O)Cn1cnc2c(=O)[nH]c(N)nc21)C(=O)Cn1ccc(N)nc1=O)C(=O)N[C@H](C(=O)N[C@@H](Cc1ccc(O)cc1)C(=O)N[C@@H](CCC(=O)O)C(=O)N[C@@H](Cc1ccccc1)C(=O)N[C@@H](CCSC)C(=O)N[C@@H](CCCCN)C(=O)N[C@@H](CCCCN)C(N)=O)[C@@H](C)CC)C(C)C — Kd (Spike glycoprotein; binding, SPR): 0.32 nM
CC(C)C[C@H](NC(=O)[C@H](Cc1c[nH]c2ccccc12)NC(=O)[C@H](CCCNC(=N)N)NC(=O)[C@H]1CCC[C@@H]1NC(=O)[C@H](CCC(=O)O)NC(=O)[C@H](CC(=O)O)NC(=O)[C@H](CC(=O)O)NC(=O)[C@@H](N)CCCNC(=N)N)C(=O)N[C@H]1CCC[C@@H]1C(=O)N[C@H](C(=O)N[C@@H](CC(=O)O)C(=O)N[C@H]1CCC[C@@H]1C(=O)N[C@H](C(=O)N[C@@H](Cc1ccc(O)cc1)C(=O)N[C@@H](CCC(=O)O)C(=O)N[C@H]1CCC[C@@H]1C(=O)N[C@@H](Cc1c[nH]c2ccccc12)C(=O)N[C@@H](Cc1c[nH]cn1)C(N)=O)C(C)C)[C@@H](C)O — Kd (Spike glycoprotein RBD): 1100 nM
O=CC(O)C(O)C(O)C(O)COc1cc(O)c2c(=O)c(OCC(O)C(O)C(O)C(O)C=O)c(-c3ccc(O)c(O)c3)oc2c1 (stereo not shown) — Kd (Spike glycoprotein; binding): 94.7 nM
CC1COC2(OC3CC4C5CC(OC6OC(C)C(O)C(OC7OC(C)C(O)C(O)C7O)C6O)C6CC(O)CCC6(C)C5CCC4(C)C3C2C)C(O)C1 (stereo not shown) — Kd (Spike glycoprotein, S1 subunit (Severe acute respiratory syndrome coronavirus 2, UniProt P0DTC2); binding): 3760 nM
CCSC[C@H](NC(=O)[C@H](CCCC(=O)NCCN(CC(=O)NCCN(CC(=O)NCCN(CC(=O)NCCN(CC(=O)N[C@@H](CCCNC(=N)N)C(N)=O)C(=O)Cn1cnc2c(=O)[nH]c(N)nc21)C(=O)Cn1ccc(N)nc1=O)C(=O)Cn1ccc(N)nc1=O)C(=O)Cn1cnc2c(=O)[nH]c(N)nc21)NC(=O)[C@H](CCC(=O)O)NC(=O)[C@H](Cc1ccc(O)cc1)NC(=O)[C@@H](NC(=O)[C@H](CCCCN)NC(=O)[C@H](CCC(N)=O)NC(=O)[C@H](CC1CCC1)NC(=O)[C@@H](NC(=O)[C@H](Cc1c[nH]c2ccccc12)NC(=O)[C@H](CCC(=O)O)NC(=O)[C@H](CCCCN)NC(=O)[C@H](CC(=O)O)NC(C)=O)[C@@H](C)CC)[C@@H](C)CC)C(=O)N[C@@H](CCCNC(=N)N)C(=O)N[C@@H](CC(C)C)C(=O)N[C@@H](CC(C)C)C(=O)N[C@@H](CC(=O)O)C(=O)N[C@@H](CCC(=O)O)C(=O)N[C@@H](CC(C)C)C(=O)NCC(=O)N[C@@H](Cc1c[nH]cn1)C(=O)N[C@@H](C)C(=O)N[C@@H](CCC(=O)O)C(=O)N[C@@H](C)C(=O)N[C@@H](CO)C(=O)N[C@@H](CCSC)C(=O)N[C@@H](CCCNC(=N)N)C(=O)N[C@@H](C)C(=O)N[C@@H](CO)C(=O)N[C@@H](CC(=O)O)C(=O)N[C@@H](CCCCNC(=O)CN(CCNC(=O)CN(CCNC(=O)CN(CCNC(=O)CN(CCNC(=O)CN(CCNC(=O)[C@H](CCCNC(=N)N)NC(C)=O)C(=O)Cn1cc(C)c(=O)[nH]c1=O)C(=O)Cn1ccc(N)nc1=O)C(=O)Cn1cnc2c(=O)[nH]c(N)nc21)C(=O)Cn1cnc2c(=O)[nH]c(N)nc21)C(=O)Cn1ccc(N)nc1=O)C(=O)N[C@H](C(=O)N[C@@H](Cc1ccc(O)cc1)C(=O)N[C@@H](CCC(=O)O)C(=O)N[C@@H](Cc1ccccc1)C(=O)N[C@@H](CCSC)C(=O)N[C@@H](CCCCN)C(=O)N[C@@H](CCCCN)C(N)=O)[C@@H](C)CC — Kd (Spike glycoprotein; binding, SPR): 0.37 nM
CC(=O)N[C@@H](CCCNC(=N)N)C(=O)N[C@@H](CC(=O)O)C(=O)N[C@@H](CC(=O)O)C(=O)N[C@@H](CCC(=O)O)C(=O)N[C@H]1CCC[C@@H]1C(=O)N[C@@H](CCCNC(=N)N)C(=O)N[C@@H](Cc1c[nH]c2ccccc12)C(=O)N[C@@H](CC(C)C)C(=O)N[C@H]1CCC[C@@H]1C(=O)N[C@H](C(=O)N[C@@H](CC(=O)O)C(=O)N[C@H]1CCC[C@@H]1C(=O)N[C@H](C(=O)N[C@@H](Cc1ccc(O)cc1)C(=O)N[C@@H](CCC(=O)O)C(=O)N[C@H]1CCC[C@@H]1C(=O)N[C@@H](Cc1c[nH]c2ccccc12)C(=O)N[C@@H](Cc1c[nH]cn1)C(N)=O)C(C)C)[C@@H](C)O — Kd (Spike glycoprotein RBD): 650 nM
CNC(C)C1C(O)CC2(C)C3CCC4C(C)(C)C(NC)CCC45CC35CCC12C (stereo not shown) — Kd (Spike glycoprotein; binding): 46500 nM
CC(C)C[C@H](NC(=O)[C@H](CO)NC(=O)[C@H](CO)NC(=O)[C@H](CCC(N)=O)NC(=O)[C@H](Cc1ccc(O)cc1)NC(=O)[C@H](Cc1ccccc1)NC(=O)[C@H](CC(C)C)NC(=O)[C@H](CC(=O)O)NC(=O)[C@@H](N)CCC(=O)O)C(=O)N[C@@H](C)C(=O)O — Kd (Spike glycoprotein; binding): 45.9 nM
CCCCCCCCCCCCCCCc1cccc(O)c1C(=O)O — Kd (Spike glycoprotein; binding, biolayer interferometry): 8380 nM
CC(C)C[C@H](NC(=O)[C@H](CC(=O)O)NC(=O)[C@H](CCC(=O)O)NC(=O)[C@H](C)NC(=O)[C@H](CCC(=O)O)NC(=O)[C@H](Cc1c[nH]cn1)NC(=O)[C@H](CC(N)=O)NC(=O)[C@H](Cc1ccccc1)NC(=O)[C@H](CCCCN)NC(=O)[C@H](CC(=O)O)NC(=O)[C@@H](N)CC(C)C)C(=O)O — Kd (Spike glycoprotein; binding): 35.2 nM
CC[C@H](C)[C@H](NC(=O)[C@H](CC(C)C)NC(=O)[C@H](CC(=O)O)NC(=O)[C@H](CO)NC(=O)[C@@H](NC(=O)[C@H](CCCNC(=N)N)NC(=O)[C@H](CCSC)NC(=O)[C@H](CO)NC(=O)[C@H](C)NC(=O)[C@H](CCC(=O)O)NC(=O)[C@H](C)NC(=O)[C@H](Cc1c[nH]cn1)NC(=O)CNC(=O)[C@H](CC(C)C)NC(=O)[C@H](CCC(=O)O)NC(=O)[C@H](CC(=O)O)NC(=O)[C@H](CC(C)C)NC(=O)[C@H](CC(C)C)NC(=O)[C@H](CCCNC(=N)N)NC(=O)[C@H](CCSC)NC(=O)[C@@H](NC(=O)[C@H](CCC(=O)O)NC(=O)[C@H](Cc1ccc(O)cc1)NC(=O)[C@@H](NC(=O)[C@H](CCCCN)NC(=O)[C@H](CCC(N)=O)NC(=O)[C@H](CC(C)C)NC(=O)[C@@H](NC(=O)[C@H](Cc1c[nH]c2ccccc12)NC(=O)[C@H](CCC(=O)O)NC(=O)[C@H](CCCCN)NC(=O)[C@@H](N)CC(=O)O)[C@@H](C)CC)[C@@H](C)CC)[C@@H](C)CC)C(C)C)C(=O)N[C@@H](Cc1ccc(O)cc1)C(=O)N[C@@H](CCC(=O)O)C(=O)N[C@@H](Cc1ccccc1)C(=O)N[C@@H](CCSC)C(=O)N[C@@H](CCCCN)C(=O)N[C@@H](CCCCN)C(N)=O — Kd (Spike glycoprotein; binding, SPR): 4.7 nM

Repeated from above:
CC(C)C[C@H](NC(=O)[C@H](CO)NC(=O)[C@H](CO)NC(=O)[C@H](CCC(N)=O)NC(=O)[C@H](Cc1ccc(O)cc1)NC(=O)[C@H](Cc1ccccc1)NC(=O)[C@H](CC(C)C)NC(=O)[C@H](CC(=O)O)NC(=O)[C@@H](N)CCC(=O)O)C(=O)N[C@@H](C)C(=O)O — Kd (Spike glycoprotein; binding): 45.9 nM
